Results pooled from the literature.
± gives the spread as reported.
Technique: steady-state kinetics
B1: Saccharopine reductase (Saccharomyces cerevisiae, UniProt P38999); chain MGKNVLLLGSGFVAQPVIDTLAANDDINVTVACRTLANAQALAKPSGSKAISLDVTDDSALDKVLADNDVVISLIPYTFHPNVVKSAIRTKTDVVTSSYISPALRELEPEIVKAGITVMNEIGLDPGIDHLYAVKTIDEVHRAGGKLKSFLSYCGGLPAPEDSDNPLGYKFSWSSRGVLLALRNSAKYWKDGKIETVSSEDLMATAKPYFIYPGYAFVCYPNRDSTLFKDLYHIPEAETVIRGTLRYQGFPEFVKALVDMGMLKDDANEIFSKPIAWNEALKQYLGAKSTSKEDLIASIDSKATWKDDEDRERILSGFAWLGLFSDAKITPRGNALDTLCARLEELMQYEDNERDMVVLQHKFGIEWADGTTETRTSTLVDYGKVGGYSSMAATVGYPVAIATKFVLDGTIKGPGLLAPYSPEINDPIMKELKDKYGIYLKEKTVA
B2: protein (Streptomyces coelicolor, UniProt P16544); chain MATQDSEVALVTGATSGIGLEIARRLGKEGLRVFVCARGEEGLRTTLKELREAGVEADGRTCDVRSVPEIEALVAAVVERYGPVDVLVNNAGRPGGGATAELADELWLDVVETNLTGVFRVTKQVLKAGGMLERGTGRIVNIASTGGKQGVVHAAPYSASKHGVVGFTKALGLELARTGITVNAVCPGFVETPMAASVREHYSDIWEVSTEEAFDRITARVPIGRYVQPSEVAEMVAYLIGPGAAAVTAQALNVCGGLGNY
B3: PRP43 F357A (Saccharomyces cerevisiae, UniProt P53131); chain MGSKRRFSSEHPDPVETSIPEQAAEIAEELSKQHPLPSEEPLVHHDAGEFKGLQRHHTSAEEAQKLEDGKINPFTGREFTPKYVDILKIRRELPVHAQRDEFLKLYQNNQIMVFVGETGSGKTTQIPQFVLFDEMPHLENTQVACTQPRRVAAMSVAQRVAEEMDVKLGEEVGYSIRFENKTSNKTILKYMTDGMLLREAMEDHDLSRYSCIILDEAHERTLATDILMGLLKQVVKRRPDLKIIIMSATLDAEKFQRYFNDAPLLAVPGRTYPVELYYTPEFQRDYLDSAIRTVLQIHATEEAGDILLFLTGEDEIEDAVRKISLEGDQLVREEGCGPLSVYPLYGSLPPHQQQRIAEPAPESHNGRPGRKVVISTNIAETSLTIDGIVYVVDPGFSKQKVYNPRIRVESLLVSPISKASAQQRAGRAGRTRPGKCFRLYTEEAFQKELIEQSYPEILRSNLSSTVLELKKLGIDDLVHFDFMDPPAPETMMRALEELNYLACLDDEGNLTPLGRLASQFPLDPMLAVMLIGSFEFQCSQEILTIVAMLSVPNVFIRPTKDKKRADDAKNIFAHPDGDHITLLNVYHAFKSDEAYEYGIHKWCRDHYLNYRSLSAADNIRSQLERLMNRYNLELNTTDYESPKYFDNIRKALASGFFMQVAKKRSGAKGYITVKDNQDVLIHPSTVLGHDAEWVIYNEFVLTSKNYIRTVTSVRPEWLIEIAPAYYDLSNFQKGDVKLSLERIKEKVDRLNELKQGKNKKKSKHSKK
B4: UGT88A1 (Arabidopsis thaliana, UniProt Q9LK73); chain MGEEAIVLYPAPPIGHLVSMVELGKTILSKNPSLSIHIILVPPPYQPESTATYISSVSSSFPSITFHHLPAVTPYSSSSTSRHHHESLLLEILCFSNPSVHRTLFSLSRNFNVRAMIIDFFCTAVLDITADFTFPVYFFYTSGAACLAFSFYLPTIDETTPGKNLKDIPTVHIPGVPPMKGSDMPKAVLERDDEVYDVFIMFGKQLSKSSGIIINTFDALENRAIKAITEELCFRNIYPIGPLIVNGRIEDRNDNKAVSCLNWLDSQPEKSVVFLCFGSLGLFSKEQVIEIAVGLEKSGQRFLWVVRNPPELEKTELDLKSLLPEGFLSRTEDKGMVVKSWAPQVPVLNHKAVGGFVTHCGWNSILEAVCAGVPMVAWPLYAEQRFNRVMIVDEIKIAISMNESETGFVSSTEVEKRVQEIIGECPVRERTMAMKNAAELALTETGSSHTALTTLLQSWSPK
B5: protein Y93P (Thermus thermophilus, UniProt Q5SKR5); chain MSAPKPFVIGIAGGTASGKTTLAQALARTLGERVALLPMDHYYKDLGHLPLEERLRVNYDHPDAFDLALYLEHAQALLRGLPVEMPVYDFRAPTRSPRRTPVRPAPVVILEGILVLYPKELRDLMDLKVFVDADADERFIRRLKRDVLERGRSLEGVVAQYLEQVKPMHLHFVEPTKRYADVIVPRGGQNPVALEMLAAKALARLARMGAA
B6: HARS1 Y330C (Homo sapiens, UniProt P12081); chain MAERAALEELVKLQGERVRGLKQQKASAELIEEEVAKLLKLKAQLGPDESKQKFVLKTPKGTRDYSPRQMAVREKVFDVIIRCFKRHGAEVIDTPVFELKETLMGKYGEDSKLIYDLKDQGGELLSLRYDLTVPFARYLAMNKLTNIKRYHIAKVYRRDNPAMTRGRYREFYQCDFDIAGNFDPMIPDAECLKIMCEILSSLQIGDFLVKVNDRRILDGMFAICGVSDSKFRTICSSVDKLDKVSWEEVKNEMVGEKGLAPEVADRIGDYVQQHGGVSLVEQLLQDPKLSQNKQALEGLGDLKLLFEYLTLFGIDDKISFDLSLARGLDCYTGVIYEAVLLQTPAQAGEEPLGVGSVAAGGRYDGLVGMFDPKGRKVPCVGLSIGVERIFSIVEQRLEALEEKIRTTETQVLVASAQKKLLEERLKLVSELWDAGIKAELLYKKNPKLLNQLQYCEEAGIPLVAIIGEQELKDGVIKLRSVTSREEVDVRREDLVEEIKRRTGQPLCIC
Chain of UniProt Q5W0Z9 (whole entry, looked up): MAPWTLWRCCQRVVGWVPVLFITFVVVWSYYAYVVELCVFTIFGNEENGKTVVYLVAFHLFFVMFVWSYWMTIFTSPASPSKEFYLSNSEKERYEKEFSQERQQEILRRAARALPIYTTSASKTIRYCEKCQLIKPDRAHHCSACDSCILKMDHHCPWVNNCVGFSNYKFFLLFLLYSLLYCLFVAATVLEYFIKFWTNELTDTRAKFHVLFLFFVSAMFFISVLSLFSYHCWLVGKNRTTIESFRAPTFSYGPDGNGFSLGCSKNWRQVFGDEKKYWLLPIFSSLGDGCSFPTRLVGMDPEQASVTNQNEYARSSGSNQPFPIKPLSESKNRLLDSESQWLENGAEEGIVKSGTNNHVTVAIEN

For `B1 (Saccharopine reductase)`, the kcat was 13 ± 1 s⁻¹ (NC(=O)c1ccc[n+]([C@@H]2O[C@H](COP(=O)(O)OP(=O)(O)OC[C@H]3O[C@@H](n4cnc5c(N)ncnc54)[C@H](OP(=O)(O)O)[C@@H]3O)[C@@H](O)[C@H]2O)c1; pH 9, 25 °C, together with: saccharopine).
The kcat of `ZDHHC20 (Homo sapiens, UniProt Q5W0Z9)` is reported as 0.275 ± 0.005 s⁻¹ (CCCCCCCCCCCCCCCC(=O)SCCNC(=O)CCNC(=O)[C@H](O)C(C)(C)COP(=O)(O)OP(=O)(O)OC[C@H]1O[C@@H](n2cnc3c(N)ncnc32)[C@H](O)[C@@H]1OP(=O)(O)O; pH 6.5, 30 °C, NaCl 50 mM).
The kcat of `B2 (protein)` is reported as 0.24 ± 0.01 s⁻¹ (O[C@H]1CCCc2ccccc21; pH 7.4, phosphate 400 mM, NADPH 250 µM printed, together with: NADP+, reverse reaction).
`alanine aminopeptidase (Neisseria meningitidis, UniProt Q9JYV4)` gave a kcat of 3.84 ± 0.04 s⁻¹ (NC(=O)Cc1cc(=O)oc2cc(NC(=O)[C@@H](N)CC3CCCCC3)ccc12; pH 7.5, 37 °C).
`B3 (PRP43 F357A)` gave a kcat of 12.7 ± 0.5 s⁻¹ (Nc1ccn([C@@H]2O[C@H](COP(=O)(O)OP(=O)(O)OP(=O)(O)O)[C@@H](O)[C@H]2O)c(=O)n1; pH 8, KCl 100 mM, without Pfa1, together with: polyA 0.2 mM, magnesium acetate 2.5 mM).
The kcat of `B4 (UGT88A1)` is reported as 0.16 s⁻¹ (O=c1c(O)c(-c2ccc(O)c(O)c2)oc2cc(O)cc(O)c12; pH 6.8, 37 °C, together with: UDP-glucose).
The kcat of `B5 (protein Y93P)` is reported as 4.6 ± 0.9 s⁻¹ (Nc1ccn([C@@H]2O[C@H](CO)[C@@H](O)[C@H]2O)c(=O)n1; pH 7.2, 25 °C, KCl 100 mM, together with: ATP 100–200 µM).
With `protein (UniProt M4ZR24)` the kcat was 0.0483 ± 0.00333 s⁻¹ (Cc1cn([C@H]2C[C@H](O)[C@@H](CO)O2)c(=O)[nH]c1=O; phosphorolysis, single substrate, together with: phosphate).
With `B6 (HARS1 Y330C)` the kcat was 0.48 s⁻¹ (Nc1ncnc2c1ncn2[C@@H]1O[C@H](COP(=O)(O)OP(=O)(O)OP(=O)(O)O)[C@@H](O)[C@H]1O; pH 7.5, saturation not reached, together with: histidine, tRNAHis 5 µM, MgCl2 10 mM, KCl 150 mM).
`Ptb (Listeria monocytogenes, UniProt Q8Y7B7)` gave a kcat of 302 ± 104 s⁻¹ (CC(=O)SCCNC(=O)CCNC(=O)[C@H](O)C(C)(C)COP(=O)(O)OP(=O)(O)OC[C@H]1O[C@@H](n2cnc3c(N)ncnc32)[C@H](O)[C@@H]1OP(=O)(O)O; pH 7.5, 25 °C, apparent, poor fit).
